Experimental data pooled from the literature.
Every numbered part comes from another study and shows a few of its results, in no order. Several values in a cell are separate wells, animals, samples, runs or records.
UniProt P42336, sequence (whole entry, unmodified, looked up): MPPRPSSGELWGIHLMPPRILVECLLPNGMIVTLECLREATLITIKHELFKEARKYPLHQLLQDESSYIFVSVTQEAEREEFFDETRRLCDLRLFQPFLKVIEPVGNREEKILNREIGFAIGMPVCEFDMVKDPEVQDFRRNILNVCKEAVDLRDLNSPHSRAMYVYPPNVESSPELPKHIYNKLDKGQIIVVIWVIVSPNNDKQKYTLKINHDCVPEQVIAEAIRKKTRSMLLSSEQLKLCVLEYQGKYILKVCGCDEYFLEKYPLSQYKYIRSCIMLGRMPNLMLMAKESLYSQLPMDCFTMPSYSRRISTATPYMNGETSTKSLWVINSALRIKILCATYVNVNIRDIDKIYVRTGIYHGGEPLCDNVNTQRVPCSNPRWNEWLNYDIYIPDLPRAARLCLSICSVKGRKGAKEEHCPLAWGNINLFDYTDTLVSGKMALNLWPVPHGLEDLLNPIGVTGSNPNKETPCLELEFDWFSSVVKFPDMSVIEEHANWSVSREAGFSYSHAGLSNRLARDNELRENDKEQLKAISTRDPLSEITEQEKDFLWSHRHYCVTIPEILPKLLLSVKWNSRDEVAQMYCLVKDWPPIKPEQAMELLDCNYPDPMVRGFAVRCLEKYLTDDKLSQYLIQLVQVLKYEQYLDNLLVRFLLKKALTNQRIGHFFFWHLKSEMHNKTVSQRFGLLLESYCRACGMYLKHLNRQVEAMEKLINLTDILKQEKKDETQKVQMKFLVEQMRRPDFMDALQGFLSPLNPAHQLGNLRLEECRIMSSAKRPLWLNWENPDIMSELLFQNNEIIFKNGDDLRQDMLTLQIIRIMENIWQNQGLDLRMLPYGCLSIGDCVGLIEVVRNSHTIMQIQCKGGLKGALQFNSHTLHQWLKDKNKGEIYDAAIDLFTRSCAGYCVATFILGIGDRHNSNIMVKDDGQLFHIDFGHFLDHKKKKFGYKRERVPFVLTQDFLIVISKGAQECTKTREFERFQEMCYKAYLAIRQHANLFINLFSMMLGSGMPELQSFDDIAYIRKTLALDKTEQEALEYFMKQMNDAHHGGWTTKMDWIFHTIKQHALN
UniProt P21127, sequence (whole entry, looked up): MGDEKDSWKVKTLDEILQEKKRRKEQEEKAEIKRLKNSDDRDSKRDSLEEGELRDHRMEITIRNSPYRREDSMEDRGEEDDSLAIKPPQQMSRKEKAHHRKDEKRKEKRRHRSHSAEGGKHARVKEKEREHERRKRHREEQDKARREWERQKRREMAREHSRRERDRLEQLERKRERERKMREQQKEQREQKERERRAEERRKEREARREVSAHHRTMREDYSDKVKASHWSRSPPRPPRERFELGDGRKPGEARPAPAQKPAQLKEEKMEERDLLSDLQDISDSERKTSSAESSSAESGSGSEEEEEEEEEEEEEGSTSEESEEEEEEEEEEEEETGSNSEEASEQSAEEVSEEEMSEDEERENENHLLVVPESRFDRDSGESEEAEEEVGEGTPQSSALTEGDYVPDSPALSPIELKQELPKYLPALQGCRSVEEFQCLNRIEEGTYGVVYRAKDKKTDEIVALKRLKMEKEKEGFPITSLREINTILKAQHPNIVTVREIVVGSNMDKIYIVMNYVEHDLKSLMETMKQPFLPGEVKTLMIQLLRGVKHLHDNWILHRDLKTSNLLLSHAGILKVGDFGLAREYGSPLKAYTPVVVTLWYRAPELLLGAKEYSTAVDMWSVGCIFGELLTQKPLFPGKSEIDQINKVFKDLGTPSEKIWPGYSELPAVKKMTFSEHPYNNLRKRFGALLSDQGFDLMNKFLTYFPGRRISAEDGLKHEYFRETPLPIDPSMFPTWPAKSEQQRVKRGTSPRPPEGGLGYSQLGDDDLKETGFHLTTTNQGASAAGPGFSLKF
UniProt P00519, sequence (whole entry, unmodified, looked up): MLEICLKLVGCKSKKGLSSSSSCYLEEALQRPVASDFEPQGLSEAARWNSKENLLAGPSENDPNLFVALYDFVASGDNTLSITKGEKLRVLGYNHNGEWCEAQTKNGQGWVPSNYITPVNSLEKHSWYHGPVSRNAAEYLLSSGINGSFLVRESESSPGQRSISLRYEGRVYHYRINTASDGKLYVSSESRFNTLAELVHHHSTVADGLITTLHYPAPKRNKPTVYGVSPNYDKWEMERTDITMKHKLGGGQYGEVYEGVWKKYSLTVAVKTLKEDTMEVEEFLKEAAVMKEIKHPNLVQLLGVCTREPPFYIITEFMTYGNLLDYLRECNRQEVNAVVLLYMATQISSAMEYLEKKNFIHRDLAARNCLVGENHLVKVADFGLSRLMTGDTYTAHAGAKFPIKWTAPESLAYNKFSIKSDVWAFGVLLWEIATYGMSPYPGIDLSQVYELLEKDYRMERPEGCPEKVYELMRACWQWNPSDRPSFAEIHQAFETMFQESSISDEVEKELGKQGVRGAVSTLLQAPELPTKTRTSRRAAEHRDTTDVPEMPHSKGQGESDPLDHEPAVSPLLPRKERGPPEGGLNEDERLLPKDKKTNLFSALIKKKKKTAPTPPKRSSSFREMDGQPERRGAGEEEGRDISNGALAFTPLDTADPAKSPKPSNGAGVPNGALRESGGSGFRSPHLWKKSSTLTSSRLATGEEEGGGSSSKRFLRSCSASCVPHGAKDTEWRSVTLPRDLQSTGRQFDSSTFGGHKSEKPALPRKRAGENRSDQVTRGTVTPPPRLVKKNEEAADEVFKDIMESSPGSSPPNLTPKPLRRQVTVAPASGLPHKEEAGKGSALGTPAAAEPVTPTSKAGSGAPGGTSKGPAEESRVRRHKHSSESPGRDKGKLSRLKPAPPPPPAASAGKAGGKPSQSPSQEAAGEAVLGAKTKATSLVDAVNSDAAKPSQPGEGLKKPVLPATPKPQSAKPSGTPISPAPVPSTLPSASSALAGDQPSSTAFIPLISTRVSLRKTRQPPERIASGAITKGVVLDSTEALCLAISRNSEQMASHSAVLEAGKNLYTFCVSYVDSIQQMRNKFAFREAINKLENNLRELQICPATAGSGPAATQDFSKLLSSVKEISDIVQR
UniProt Q9HCP0, sequence (whole entry, looked up): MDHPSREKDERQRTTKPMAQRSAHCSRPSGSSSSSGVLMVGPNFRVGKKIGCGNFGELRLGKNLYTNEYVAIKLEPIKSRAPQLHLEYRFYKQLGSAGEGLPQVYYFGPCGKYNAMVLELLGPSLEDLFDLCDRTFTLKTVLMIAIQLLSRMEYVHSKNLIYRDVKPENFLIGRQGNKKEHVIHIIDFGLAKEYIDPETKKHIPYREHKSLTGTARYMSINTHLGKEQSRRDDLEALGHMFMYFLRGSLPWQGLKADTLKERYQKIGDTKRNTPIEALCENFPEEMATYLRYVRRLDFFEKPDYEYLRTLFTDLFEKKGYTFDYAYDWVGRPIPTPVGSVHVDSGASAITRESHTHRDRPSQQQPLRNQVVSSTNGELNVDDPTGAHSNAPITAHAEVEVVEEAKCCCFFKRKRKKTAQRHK
UniProt Q13882, sequence (whole entry, looked up): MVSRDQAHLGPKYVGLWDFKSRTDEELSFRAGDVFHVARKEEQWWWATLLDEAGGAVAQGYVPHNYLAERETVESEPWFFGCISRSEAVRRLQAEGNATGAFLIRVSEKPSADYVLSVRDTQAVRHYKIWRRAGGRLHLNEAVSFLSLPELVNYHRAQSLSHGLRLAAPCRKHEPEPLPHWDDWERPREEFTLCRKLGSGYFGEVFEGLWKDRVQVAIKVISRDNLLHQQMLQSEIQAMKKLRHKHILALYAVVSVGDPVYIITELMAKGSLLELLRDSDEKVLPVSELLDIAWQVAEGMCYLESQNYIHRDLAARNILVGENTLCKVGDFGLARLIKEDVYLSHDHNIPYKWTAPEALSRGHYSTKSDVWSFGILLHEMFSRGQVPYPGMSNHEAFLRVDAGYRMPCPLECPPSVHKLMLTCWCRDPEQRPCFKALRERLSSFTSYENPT

Study 1
Compound: CC(C)S(=O)(=O)c1ccc2nccc(Nc3ccc4sc(C5CCCC5)nc4c3)c2c1
It gave 59 µM for CC50 (L929 RIPK3 knockout; cell viability; without zVAD, 10% FBS, mean of 3).
For L929; cell viability, CCK-8; 10% FBS, together with: zVAD: CC50 read 53.2 µM.
L929 RIPK3 knockout; cell viability; 10% FBS, mean of 3, together with: zVAD — CC50: 59.3 µM.
L929 RIPK3 knockout; cell viability; without zVAD, 10% FBS — CC50: 60.8 µM.
It gave 58.6 µM and 60 µM for CC50 (CCK-8; L929 RIPK3 knockout, mouse; MEM with 10% FBS, together with: zVAD).
L929; cell viability, CCK-8; 10% FBS, mean of 3, together with: zVAD — CC50: 53.1 µM.
L929; cell viability, CCK-8; without zVAD, 10% FBS, mean of 3 — CC50: 53.2 µM.
It gave 53.3 µM for CC50 (L929; cell growth or viability, CCK-8).

Study 2
Target: Beta-1 adrenergic receptor (ADRB1, Homo sapiens, UniProt P08588)
UniProt P08588, sequence (whole entry, looked up): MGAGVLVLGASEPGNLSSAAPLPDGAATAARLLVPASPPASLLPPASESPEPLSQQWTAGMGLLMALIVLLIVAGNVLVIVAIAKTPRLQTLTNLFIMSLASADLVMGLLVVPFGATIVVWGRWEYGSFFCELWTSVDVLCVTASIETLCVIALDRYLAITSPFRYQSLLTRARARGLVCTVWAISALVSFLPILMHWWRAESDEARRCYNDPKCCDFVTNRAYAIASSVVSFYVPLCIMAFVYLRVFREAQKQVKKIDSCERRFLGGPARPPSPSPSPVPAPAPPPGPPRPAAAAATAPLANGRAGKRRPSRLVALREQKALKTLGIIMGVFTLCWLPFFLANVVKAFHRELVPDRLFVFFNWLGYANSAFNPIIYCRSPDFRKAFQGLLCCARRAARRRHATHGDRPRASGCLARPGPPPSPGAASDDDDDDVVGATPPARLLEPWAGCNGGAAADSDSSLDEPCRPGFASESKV
Action: antagonist
The IC50 of `CC(C)NC[C@H](O)COc1ccc(O)cc1` is reported as at least 100 µM.
`Cc1cc(C(=O)N2CCc3c(nc(C)nc3N(C)C)C2)c2cccc(C)c2n1` gave an IC50 of at least 100 µM.
The IC50 of `N[S+](=O)([O-])c1ccc(Cc2c(-c3ccc(F)c(C#Cc4ccc(CNCCOCCOCCNC(=O)COc5cccc6c5C(=O)N(C5CCC(=O)NC5=O)C6=O)s4)c3)nn(-c3nc(C(=O)O)cs3)c2CC2CC2)cc1F` (stereo not drawn) is reported as at least 100 µM.
`Cc1cc(C(=O)Nc2ccc3ccccc3n2)c2cnn(C(C)C)c2n1` has an IC50 of at least 100 µM.
`O=C(Nc1ccc(Oc2ccnc3[nH]ccc23)c(F)c1)c1cccn(-c2ccc(F)cc2)c1=O` has an IC50 of at least 100 µM.
`Cc1ccc(C)c(-c2cc(C)c3ccccc3n2)c1` has an IC50 of at least 100 µM.
`O=C(Nc1ccc([C@@H](O)[C@H]2COCC(=O)N2CC2CC2)cc1)c1ccc(F)cc1` has an IC50 of at least 100 µM.
With `CCOC(=O)N1CCN(Cc2cccc(OCC(O)CN3CCOCC3)c2)CC1` (stereo not drawn) the IC50 was at least 100 µM.
`COc1ccc(OC)c(-c2cc(-c3ccccc3)nc3c(C)noc23)c1` has an IC50 of at least 100 µM.
`O=C1c2c(nc(CNCc3cccc(Cl)c3)n2Cc2ccccc2)NCCN1CCOc1ccccc1` has an IC50 of at least 100 µM.
`O=c1oc2ccc(Cl)cc2cc1-c1nc2c(s1)CCc1ccccc1-2` gave an IC50 of at least 100 µM.
The IC50 of `Cc1cccc(CCNc2ncc(C(C)(C)C(=O)O)c(N3CCOCC3)n2)n1` is reported as at least 100 µM.
For `O=C1c2ccc3ccccc3c2C(=O)C1c1cc(O)c2ccccc2n1` (stereo not drawn), the IC50 was at least 100 µM.
With `Cc1ccc2c(CC(=O)N3CCOc4ccc(CN5CCOCC5)cc4C3)cc(=O)oc2c1` the IC50 was at least 100 µM.
With `O=C1c2cc(N3CCOCC3)nc(-c3cccc(O)c3)c2CN1CC(F)(F)F` the IC50 was at least 100 µM.

Study 3
Target: Calcium/calmodulin-dependent protein kinase type II subunit alpha (CAMK2A, Homo sapiens, UniProt Q9UQM7)
UniProt Q9UQM7, sequence (whole entry, looked up): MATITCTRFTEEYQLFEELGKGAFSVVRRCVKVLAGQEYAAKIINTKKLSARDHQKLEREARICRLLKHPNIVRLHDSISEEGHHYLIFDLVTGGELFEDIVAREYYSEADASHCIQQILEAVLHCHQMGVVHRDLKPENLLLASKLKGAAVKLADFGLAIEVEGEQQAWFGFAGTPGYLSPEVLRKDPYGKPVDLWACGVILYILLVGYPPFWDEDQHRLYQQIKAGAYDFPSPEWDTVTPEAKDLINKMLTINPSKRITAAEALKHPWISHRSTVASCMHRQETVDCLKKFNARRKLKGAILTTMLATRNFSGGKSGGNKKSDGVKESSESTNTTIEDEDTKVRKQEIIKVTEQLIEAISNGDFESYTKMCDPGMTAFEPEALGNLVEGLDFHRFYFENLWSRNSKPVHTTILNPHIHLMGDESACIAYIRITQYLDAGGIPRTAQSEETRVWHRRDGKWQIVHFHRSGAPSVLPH
Effect on: enzyme activity
Action: inhibitor
Concentration: 10 µM
For `CO[C@H]1C[C@@H]2CC[C@@H](C)[C@@](O)(O2)C(=O)C(=O)N2CCCC[C@H]2C(=O)O[C@H]([C@H](C)C[C@@H]2CC[C@@H](OCCO)[C@H](OC)C2)CC(=O)[C@H](C)/C=C(\C)[C@@H](O)[C@@H](OC)C(=O)[C@H](C)C[C@H](C)/C=C/C=C/C=C/1C`, the inhibition was 7%.
With `CC1(C)CC[C@]2(C(=O)O)CC[C@]3(C)C(=CC[C@@H]4[C@@]5(C)CC[C@H](O[C@@H]6O[C@H](C(=O)O)[C@@H](O)[C@H](O)[C@H]6O)C(C)(C)[C@@H]5CC[C@]43C)[C@@H]2C1` the inhibition was 5%.
For `CC(C)(c1ccc(O)cc1)c1ccc(O)cc1`, the inhibition was 21%.
The inhibition of `CN/C(=C\[N+](=O)[O-])NCCSCc1ccc(CN(C)C)o1` is reported as -6%.
With `C=CC(=O)N1CCC([C@@H]2CCNc3c(C(N)=O)c(-c4ccc(Oc5ccccc5)cc4)nn32)CC1` the inhibition was -11%.
`C=C1C(=O)[C@@]23[C@H](O)C[C@@H]4C(C)(C)CC[C@H](O)[C@@]4(CO)[C@@H]2CC[C@@H]1[C@H]3O` has an inhibition of 22%.
With `C[C@@H]1CC[C@@]2(NC1)O[C@H]1C[C@H]3[C@@H]4CC=C5C[C@@H](O[C@@H]6O[C@H](CO)[C@@H](O[C@@H]7O[C@@H](C)[C@H](O)[C@@H](O)[C@H]7O)[C@H](O)[C@H]6O[C@@H]6O[C@@H](C)[C@H](O)[C@@H](O)[C@H]6O)CC[C@]5(C)[C@H]4CC[C@]3(C)[C@H]1[C@@H]2C` the inhibition was -11%.
With `COc1ccc(CC(=O)c2ccc(O)cc2O)cc1` the inhibition was -27%.
The inhibition of `OC[C@H]1O[C@@](CO)(OC[C@@]2(OC[C@@]3(OC[C@@]4(OC[C@@]5(OC[C@@]6(OC[C@@]7(O[C@H]8O[C@H](CO)[C@@H](O)[C@H](O)[C@H]8O)O[C@H](CO)[C@@H](O)[C@@H]7O)O[C@H](CO)[C@@H](O)[C@@H]6O)O[C@H](CO)[C@@H](O)[C@@H]5O)O[C@H](CO)[C@@H](O)[C@@H]4O)O[C@H](CO)[C@@H](O)[C@@H]3O)O[C@H](CO)[C@@H](O)[C@@H]2O)[C@@H](O)[C@@H]1O` is reported as 2%.
`CC(=O)O[C@H]1C(=O)[C@@]2(C)[C@H]([C@H](OC(=O)c3ccccc3)[C@]3(O)C[C@H](OC(=O)[C@H](O)[C@@H](NC(=O)c4ccccc4)c4ccccc4)C(C)=C1C3(C)C)[C@]1(OC(C)=O)CO[C@@H]1C[C@@H]2O` has an inhibition of 3%.
The inhibition of `C[C@@H]1O[C@@H](O[C@H]2[C@H](O[C@H]3[C@H](O[C@H]4CC[C@@]5(C)[C@@H](CC[C@]6(C)[C@@H]5CC=C5[C@@H]7CC(C)(C)C[C@@H](O)[C@]7(C)CC[C@]56C)[C@@]4(C)CO)O[C@H](C(=O)O)[C@@H](O)[C@@H]3O)O[C@H](CO)[C@H](O)[C@@H]2O)[C@H](O)[C@H](O)[C@H]1O` is reported as 13%.
For `CCCCC(C)CCC(=O)O` (stereo not drawn), the inhibition was 29%.

Study 4
Compound: C[C@H](NC(=O)c1cnc2n1[C@](C)(Cc1ccc(C#N)cc1)C(=O)N2c1cc(Cl)c(F)c(Cl)c1)C(=O)NC1(c2ccccn2)CC1
Concentration: 1 µM
For Serine/threonine-protein kinase B-raf (BRAF, Homo sapiens, UniProt P15056, V600E); cell-free assay, competition with immobilised ligand: remaining binding read 100%.
Phosphatidylinositol 4,5-bisphosphate 3-kinase catalytic subunit alpha isoform (PIK3CA, Homo sapiens, UniProt P42336, E545A); cell-free assay, competition with immobilised ligand — remaining binding: 100%.
Cyclin-dependent kinase 11B (CDK11B, Homo sapiens, UniProt P21127); cell-free assay, competition with immobilised ligand — remaining binding: 100%.
For Focal adhesion kinase 1 (PTK2, Homo sapiens, UniProt Q05397); cell-free assay, competition with immobilised ligand: remaining binding read 100%.
Mitogen-activated protein kinase kinase kinase 5 (MAP3K5, Homo sapiens, UniProt Q99683); cell-free assay, competition with immobilised ligand — remaining binding: 92%.
For Mitotic checkpoint serine/threonine-protein kinase BUB1 (BUB1, Homo sapiens, UniProt O43683); cell-free assay, competition with immobilised ligand: remaining binding read 100%.
Tyrosine-protein kinase Fes/Fps (FES, Homo sapiens, UniProt P07332); cell-free assay, competition with immobilised ligand — remaining binding: 100%.
For Tyrosine-protein kinase JAK1, JH2 (JAK1, Homo sapiens, UniProt P23458); cell-free assay, competition with immobilised ligand: remaining binding read 100%.
For Phosphatidylinositol 4,5-bisphosphate 3-kinase catalytic subunit alpha isoform (PIK3CA, Homo sapiens, UniProt P42336, E545K); cell-free assay, competition with immobilised ligand: remaining binding read 100%.
It gave 77% for remaining binding (Serine/threonine-protein kinase PRP4 homolog (PRPF4B, Homo sapiens, UniProt Q13523); cell-free assay, competition with immobilised ligand).
The remaining binding was 78% (Tyrosine-protein kinase ABL1, phosphorylated (ABL1, Homo sapiens, UniProt P00519, F317I); binding).
Protein-tyrosine kinase 6 (PTK6, Homo sapiens, UniProt Q13882); cell-free assay, competition with immobilised ligand — remaining binding: 92%.
Casein kinase I isoform gamma-1 (CSNK1G1, Homo sapiens, UniProt Q9HCP0); cell-free assay, competition with immobilised ligand — remaining binding: 99%.

Repeated from above (study 1):
For L929; cell viability, CCK-8; 10% FBS, together with: zVAD: CC50 read 53.2 µM.
L929 RIPK3 knockout; cell viability; 10% FBS, mean of 3, together with: zVAD — CC50: 59.3 µM.
L929 RIPK3 knockout; cell viability; without zVAD, 10% FBS — CC50: 60.8 µM.
It gave 58.6 µM and 60 µM for CC50 (CCK-8; L929 RIPK3 knockout, mouse; MEM with 10% FBS, together with: zVAD).
L929; cell viability, CCK-8; 10% FBS, mean of 3, together with: zVAD — CC50: 53.1 µM.
L929; cell viability, CCK-8; without zVAD, 10% FBS, mean of 3 — CC50: 53.2 µM.
It gave 53.3 µM for CC50 (L929; cell growth or viability, CCK-8).
